Measured values pooled from the literature.
Each numbered part is a random draw from the data of one study; scales do not carry over between parts. Positions count from the first letter of the parent shown.
Sequence of UniProt P29597 (whole entry, looked up): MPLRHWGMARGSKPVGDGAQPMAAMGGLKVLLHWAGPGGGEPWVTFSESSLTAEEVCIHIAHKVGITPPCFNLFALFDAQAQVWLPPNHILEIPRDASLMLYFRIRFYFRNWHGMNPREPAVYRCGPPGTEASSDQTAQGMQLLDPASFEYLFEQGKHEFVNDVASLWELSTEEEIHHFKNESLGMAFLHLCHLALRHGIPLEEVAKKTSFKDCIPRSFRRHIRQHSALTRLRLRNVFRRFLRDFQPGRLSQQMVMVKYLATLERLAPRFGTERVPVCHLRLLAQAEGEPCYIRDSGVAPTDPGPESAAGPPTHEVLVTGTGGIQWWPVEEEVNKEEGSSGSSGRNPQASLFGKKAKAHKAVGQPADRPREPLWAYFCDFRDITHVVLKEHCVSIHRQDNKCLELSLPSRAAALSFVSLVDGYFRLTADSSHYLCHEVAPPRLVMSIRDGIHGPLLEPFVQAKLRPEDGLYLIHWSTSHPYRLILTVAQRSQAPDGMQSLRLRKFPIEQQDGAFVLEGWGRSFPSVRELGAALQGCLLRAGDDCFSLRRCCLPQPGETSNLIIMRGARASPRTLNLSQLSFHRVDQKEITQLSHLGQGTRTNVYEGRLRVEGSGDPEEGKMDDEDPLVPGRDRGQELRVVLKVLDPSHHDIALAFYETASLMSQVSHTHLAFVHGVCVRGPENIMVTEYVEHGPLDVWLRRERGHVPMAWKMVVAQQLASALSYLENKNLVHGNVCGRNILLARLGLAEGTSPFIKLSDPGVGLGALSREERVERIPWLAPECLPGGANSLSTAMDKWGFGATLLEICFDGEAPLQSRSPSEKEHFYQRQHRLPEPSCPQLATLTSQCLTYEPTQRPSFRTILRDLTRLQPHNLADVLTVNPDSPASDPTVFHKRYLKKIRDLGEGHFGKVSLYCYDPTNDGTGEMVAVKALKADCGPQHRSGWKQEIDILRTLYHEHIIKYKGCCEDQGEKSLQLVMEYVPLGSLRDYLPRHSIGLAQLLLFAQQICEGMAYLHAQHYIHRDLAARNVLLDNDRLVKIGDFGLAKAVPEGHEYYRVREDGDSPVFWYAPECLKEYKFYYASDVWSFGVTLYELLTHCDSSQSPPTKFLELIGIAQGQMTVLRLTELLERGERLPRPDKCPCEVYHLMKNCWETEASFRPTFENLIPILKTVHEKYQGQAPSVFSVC

Study 1 — method: aptamer microarray, sandwich; molecule type: DNA with 2'F-ANA; sample: in vitro; concentration: 200 nM; with: Cy3 exosite-II aptamer, 400 nM; direction: higher = stronger binding; sequence: GGTTGGTGTGGTTGG
Target: Prothrombin, mature alpha-thrombin (F2, Homo sapiens, UniProt P00734)
Notes: whole 15-mer aptamer, many near background
| Modification | mean fluorescence intensity [a.u.] |
| --- | --- |
| 2'F-ANA at 1 2 3 4 7 8 9 10 12 13 14 15 | 51.3 |
| 2'F-ANA at 1 7 8 9 11 12 13 | 252 |
| 2'F-ANA at 1 2 8 11 13 | 146 |
| 2'F-ANA at 4 5 6 7 9 10 11 12 14 | 60.5 |
| 2'F-ANA at 2 3 5 6 7 10 | 48.9 |
| 2'F-ANA at 1 8 9 10 11 12 | 68.3 |
| 2'F-ANA at 2 3 8 9 10 12 14 15 | 314 |
| 2'F-ANA at 1 4 6 7 9 12 13 | 221 |

Study 2 — target: CEP164, C-terminal peptide (human); method: DHFR complementation, deep sequencing; sample: yeast; baseline: wild type; direction: higher = weaker binding
Notes: single substitutions, model-inferred values
Parent: PDZK1, PDZ domain 2 (human); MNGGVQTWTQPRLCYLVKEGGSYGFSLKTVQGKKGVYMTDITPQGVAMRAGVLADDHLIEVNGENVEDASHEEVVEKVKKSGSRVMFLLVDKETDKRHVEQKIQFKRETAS; partner HNRVKVYRF
| Change | binding free energy change |
| --- | --- |
| F25H | 1.6 kcal/mol |
| K77M | -0.135 kcal/mol |
| C14P | 1.34 kcal/mol |
| M1V | -0.108 kcal/mol |
| V17I | -0.0917 kcal/mol |
| G35I | 0.691 kcal/mol |
| V5N | 0.0335 kcal/mol |
| M38K | 1.04 kcal/mol |

Study 3 — target: DBP, bZIP domain (human); method: DHFR protein complementation; sample: yeast; baseline: wild-type JUN-FOS pair; direction: higher = stronger binding
Notes: single substitutions, most at no-binding floor
Parent: JUN, bZIP domain (human); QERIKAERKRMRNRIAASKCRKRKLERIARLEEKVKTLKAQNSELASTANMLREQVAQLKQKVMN; partner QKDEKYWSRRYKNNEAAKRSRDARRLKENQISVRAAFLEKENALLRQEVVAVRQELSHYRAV
| Change | binding fitness [natural log] |
| --- | --- |
| K36M | -1.47 |
| V35H | -1.5 |
| K39A | -1.42 |
| L45Q | -1.46 |
| L38C | -1.56 |
| A46F | -1.28 |
| L52E | -1.47 |
| E32S | -1.38 |

Other studies, line by line
| Compound | target | effect on | mode | concentration | baseline | measurement | value |
| --- | --- | --- | --- | --- | --- | --- | --- |
| O=c1cc(-c2cccc3c2Sc2ccccc2S3)oc(N2CCOCC2)c1 | Non-receptor tyrosine-protein kinase TYK2 (TYK2, Homo sapiens, UniProt P29597) | enzyme activity | inhibitor | 0.5 µM | control | remaining activity | 95.8% |

Some of these lines once more (study 2):
| Change | binding free energy change |
| --- | --- |
| V5N | 0.0335 kcal/mol |
| M38K | 1.04 kcal/mol |
